Results collected from several papers.
Each numbered part is a random draw from the data of one study; scales do not carry over between parts. Positions count from the first letter of the parent shown.
Sequence of UniProt O23661 (whole entry, looked up): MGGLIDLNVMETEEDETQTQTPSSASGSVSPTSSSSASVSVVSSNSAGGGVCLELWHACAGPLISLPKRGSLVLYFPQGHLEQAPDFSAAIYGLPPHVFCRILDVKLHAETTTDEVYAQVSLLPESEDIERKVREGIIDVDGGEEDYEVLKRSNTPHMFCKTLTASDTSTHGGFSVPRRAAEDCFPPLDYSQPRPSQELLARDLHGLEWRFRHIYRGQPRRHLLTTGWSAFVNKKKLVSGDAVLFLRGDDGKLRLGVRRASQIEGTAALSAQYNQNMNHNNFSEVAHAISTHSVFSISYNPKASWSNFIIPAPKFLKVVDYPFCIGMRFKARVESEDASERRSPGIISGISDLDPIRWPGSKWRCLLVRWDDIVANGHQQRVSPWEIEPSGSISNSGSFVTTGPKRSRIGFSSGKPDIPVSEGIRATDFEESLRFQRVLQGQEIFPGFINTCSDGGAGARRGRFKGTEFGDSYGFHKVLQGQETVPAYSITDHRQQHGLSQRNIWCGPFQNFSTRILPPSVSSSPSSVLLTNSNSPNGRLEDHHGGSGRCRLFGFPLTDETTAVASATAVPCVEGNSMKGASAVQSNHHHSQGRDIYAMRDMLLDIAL
Sequence of UniProt Q93WC4 (whole entry, looked up): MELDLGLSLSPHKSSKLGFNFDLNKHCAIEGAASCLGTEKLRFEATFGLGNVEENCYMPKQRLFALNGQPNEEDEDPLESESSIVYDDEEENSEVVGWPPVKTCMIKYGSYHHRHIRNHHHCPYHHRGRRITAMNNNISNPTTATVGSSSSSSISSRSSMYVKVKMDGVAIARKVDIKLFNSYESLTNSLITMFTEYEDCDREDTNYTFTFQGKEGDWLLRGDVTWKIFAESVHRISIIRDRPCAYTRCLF
Sequence of UniProt Q9FX25 (whole entry, looked up): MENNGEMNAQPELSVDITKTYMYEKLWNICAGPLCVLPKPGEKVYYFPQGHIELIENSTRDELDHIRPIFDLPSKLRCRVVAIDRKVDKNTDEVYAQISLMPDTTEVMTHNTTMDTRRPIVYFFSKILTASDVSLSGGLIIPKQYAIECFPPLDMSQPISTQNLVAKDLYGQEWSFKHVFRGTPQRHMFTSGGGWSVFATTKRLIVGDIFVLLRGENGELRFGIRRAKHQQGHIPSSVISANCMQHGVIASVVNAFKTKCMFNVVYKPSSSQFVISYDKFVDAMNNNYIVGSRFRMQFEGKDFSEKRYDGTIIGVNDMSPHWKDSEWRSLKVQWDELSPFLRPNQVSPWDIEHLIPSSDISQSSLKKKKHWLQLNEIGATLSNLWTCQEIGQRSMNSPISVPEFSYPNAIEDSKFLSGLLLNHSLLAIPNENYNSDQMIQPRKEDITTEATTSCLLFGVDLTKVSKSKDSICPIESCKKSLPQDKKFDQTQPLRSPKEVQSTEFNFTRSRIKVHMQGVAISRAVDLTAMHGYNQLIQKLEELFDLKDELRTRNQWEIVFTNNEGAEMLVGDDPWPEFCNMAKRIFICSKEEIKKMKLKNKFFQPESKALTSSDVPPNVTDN

Set 1
Target: Ras GTPase-activating protein-binding protein 1, full length (G3BP1, Homo sapiens, UniProt Q13283)
Sequence of UniProt Q13283 (whole entry, looked up): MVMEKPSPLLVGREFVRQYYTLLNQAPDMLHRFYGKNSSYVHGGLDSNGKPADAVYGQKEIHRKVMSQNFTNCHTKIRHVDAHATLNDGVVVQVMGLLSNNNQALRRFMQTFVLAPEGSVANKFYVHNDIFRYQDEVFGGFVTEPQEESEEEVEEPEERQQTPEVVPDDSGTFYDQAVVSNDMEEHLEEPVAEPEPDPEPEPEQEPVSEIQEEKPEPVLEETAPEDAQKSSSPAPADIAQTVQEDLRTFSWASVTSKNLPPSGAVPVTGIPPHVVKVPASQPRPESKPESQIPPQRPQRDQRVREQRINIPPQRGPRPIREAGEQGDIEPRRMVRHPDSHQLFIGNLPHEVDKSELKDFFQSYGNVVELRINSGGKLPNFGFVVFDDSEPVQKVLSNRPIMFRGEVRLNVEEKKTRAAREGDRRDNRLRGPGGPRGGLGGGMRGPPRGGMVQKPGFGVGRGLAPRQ
Technique: RNA Bind-n-Seq
Form: RNA
Sample: in vitro
Tested at: 200 nM
Notes: whole 134-nt RNA, ends assumed
Together with: 150 mM KCl
Reference: input library
Direction: higher = stronger binding
For `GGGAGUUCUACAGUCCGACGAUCCGCUAAAGAGGAGCACGGUGGACUGAUGUGAGCUUCUCUUCCUGCCCCUUCCUCCCUGAUGUCCACUCCCUUCACCUUCCUCACGCCCGUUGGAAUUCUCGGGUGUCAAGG`, the log2 enrichment was 0.945.
`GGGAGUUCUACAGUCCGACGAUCCUCAAGUCCUGUGCUACACAUCGUAUGUACCGAAUCGGUGGAAAAAAAGGAGGAAAGUAUUAUGUUACGCCGUUCGGAUCUGCACUUCCAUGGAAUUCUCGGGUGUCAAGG` has a log2 enrichment of -0.37.
`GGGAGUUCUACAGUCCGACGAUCAGUCCUGUGCUACACAUCGUAUGUACCGAAUCGGGUUUGGGUUUUUGGGUUUUUGGGAAAGUAUUAUGUUACGCCGUUCGGAUCUGCACUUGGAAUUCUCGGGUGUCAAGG` has a log2 enrichment of -0.21.
`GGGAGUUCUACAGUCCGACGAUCUCAAGUCCUGUGCUACACAUCGUAUGUACCGAAUCGGGUUUGGGUUUGGUUUGGAAAGUAUUAUGUUACGCCGUUCGGAUCUGCACUUCCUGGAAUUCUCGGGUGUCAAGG` gave a log2 enrichment of -0.428.
`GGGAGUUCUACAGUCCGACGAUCACCAUGCAGGUGGGCAUCUUUGGGAAGUGGGGCAAGGGGGAGAUAGGGAGGGGGGUAACACUUUGGGAACAGGUGGUCCCAGGUCGUUUCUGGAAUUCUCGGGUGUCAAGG` gave a log2 enrichment of 1.23.
`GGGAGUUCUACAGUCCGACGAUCCCUGUGCUACACAUCGUAUGUACCGAAUCGGGGUUUUUUUGGGGAAAAAAAGGGGAGGGGAAAGUAUUAUGUUACGCCGUUCGGAUCUGCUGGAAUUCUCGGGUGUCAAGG` has a log2 enrichment of 0.142.
The log2 enrichment of `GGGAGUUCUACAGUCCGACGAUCUGUCCUGCAGGGUCGGACCGAUACCUGGAGAGCCGCGAUGCCUCUCGACUGAGUGGCCGGGACCCCUCCUCAUGGACAGUCGAGGAUGUGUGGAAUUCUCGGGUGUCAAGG` is reported as -1.94.
`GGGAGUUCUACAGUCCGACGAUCCUGUGCUACACAUCGUAUGUACCGAAUCGGGGAAAAAAAGGGGAAAGGGGAAAAAAAGGGGAAAGUAUUAUGUUACGCCGUUCGGAUCUGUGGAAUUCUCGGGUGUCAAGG` has a log2 enrichment of -0.208.
The log2 enrichment of `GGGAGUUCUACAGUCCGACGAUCUCAAGUCCUGUGCUACACAUCGUAUGUACCGAAUCGGUUUGGUUUUUGGUUUGGAAAGUAUUAUGUUACGCCGUUCGGAUCUGCACUUCCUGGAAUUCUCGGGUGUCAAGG` is reported as -0.932.
The log2 enrichment of `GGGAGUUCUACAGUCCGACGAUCGUCCUGUGCUACACAUCGUAUGUACCGAAUCAAACCCCCAAAUUUUUUUAAACCCAAAAAAGUAUUAUGUUACGCCGUUCGGAUCUGCACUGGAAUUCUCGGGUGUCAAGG` is reported as -0.00614.
With `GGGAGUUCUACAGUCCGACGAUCUCCUCAAGUCCUGUGCUACACAUCGUAUGUACCGAAUCGGAGGUUUGGUGGAAAGUAUUAUGUUACGCCGUUCGGAUCUGCACUUCCAGCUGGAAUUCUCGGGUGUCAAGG` the log2 enrichment was -0.795.
The log2 enrichment of `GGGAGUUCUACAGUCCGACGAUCCCUGUGCUACACAUCGUAUGUACCGAAUCGGUUUUUUGGGGUUUUUUGGGGUUUUUUGGGGAAAGUAUUAUGUUACGCCGUUCGGAUCUGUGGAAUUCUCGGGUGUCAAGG` is reported as -0.577.
The log2 enrichment of `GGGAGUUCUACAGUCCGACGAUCUCAAGUCCUGUGCUACACAUCGUAUGUACCGAAUCGGCCGGGGCCGGGGCCGGGGAAAGUAUUAUGUUACGCCGUUCGGAUCUGCACUUCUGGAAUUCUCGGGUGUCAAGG` is reported as -1.03.

Set 2
Target: ABI1, truncated, D143A, DHFR fusion (Arabidopsis thaliana)
Technique: DHFR PCA, deep sequencing
Sample: yeast
Notes: methotrexate growth selection, single substitutions
Together with: (+)-ABA 0 µM
Reference: wild-type fitted maximum
Direction: higher = stronger binding
Starting sequence: PYL1, truncated, DHFR fusion (Arabidopsis thaliana); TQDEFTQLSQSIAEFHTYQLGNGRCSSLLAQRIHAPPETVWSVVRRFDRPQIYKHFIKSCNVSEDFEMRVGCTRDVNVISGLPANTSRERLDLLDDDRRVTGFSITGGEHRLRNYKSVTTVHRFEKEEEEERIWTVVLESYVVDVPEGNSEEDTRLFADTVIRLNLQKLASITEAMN; partner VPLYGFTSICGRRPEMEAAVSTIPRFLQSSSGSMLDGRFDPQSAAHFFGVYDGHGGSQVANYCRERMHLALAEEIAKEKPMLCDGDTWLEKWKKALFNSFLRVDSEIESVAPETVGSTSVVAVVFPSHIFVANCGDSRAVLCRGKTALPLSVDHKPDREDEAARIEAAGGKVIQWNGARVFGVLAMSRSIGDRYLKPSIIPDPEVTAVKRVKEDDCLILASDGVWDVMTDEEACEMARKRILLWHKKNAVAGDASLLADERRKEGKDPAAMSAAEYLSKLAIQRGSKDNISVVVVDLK
For `V40E`, “relative binding score” read -6.32%.
For `V70Y`, “relative binding score” read 3.52%.
For `L28R`, “relative binding score” read 1.2%.
`R163G` — result for “relative binding score”: 9.7%.
`R69V` — result for “relative binding score”: 36.5%.
Under “relative binding score”, `D48Y` is recorded as -2.65%.
`C60N` — result for “relative binding score”: 0.849%.
`P146R` — result for “relative binding score”: 3.08%.
For `F15A`, “relative binding score” read 7.47%.
Under “relative binding score”, `V78T` is recorded as 23.1%.
For `F103G`, “relative binding score” read -3.18%.
`R49C` — result for “relative binding score”: 21.9%.

Set 3
Target: DDIT3, bZIP domain (human)
Technique: DHFR protein complementation
Sample: yeast
Notes: single substitutions, most at no-binding floor
Reference: wild-type JUN-FOS pair
Direction: higher = stronger binding
Starting sequence: JUN, bZIP domain (human); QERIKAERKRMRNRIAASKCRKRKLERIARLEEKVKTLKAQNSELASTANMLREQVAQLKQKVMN; partner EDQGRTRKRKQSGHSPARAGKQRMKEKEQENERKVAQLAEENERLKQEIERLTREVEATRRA
`L45H` has a binding fitness of -1.19 natural log.
`L38I` has a binding fitness of -0.945 natural log.
The binding fitness of `R53Q` is reported as -0.227 natural log.
With `L31R` the binding fitness was -0.865 natural log.
`S43C` has a binding fitness of 0.0104 natural log.
The binding fitness of `L38H` is reported as -1.21 natural log.
The binding fitness of `T48Y` is reported as 0.0065 natural log.
`K39A` has a binding fitness of -0.00638 natural log.
`I28V` gave a binding fitness of -0.0282 natural log.
For `N42I`, the binding fitness was -1.03 natural log.
The binding fitness of `L45W` is reported as -1.07 natural log.
`K39M` gave a binding fitness of 0.0169 natural log.
`R30G` has a binding fitness of 0.0268 natural log.
The binding fitness of `V35M` is reported as 0.07 natural log.

Set 4
Target: CCND3, cyclin fold, Cln2 fusion (human)
Technique: yeast growth competition, sequencing
Sample: yeast
Notes: weak parent motif
Reference: not given
Direction: higher = stronger binding
Starting sequence: E2F2 docking peptide (human); LPAKRKLDLEGIG; partner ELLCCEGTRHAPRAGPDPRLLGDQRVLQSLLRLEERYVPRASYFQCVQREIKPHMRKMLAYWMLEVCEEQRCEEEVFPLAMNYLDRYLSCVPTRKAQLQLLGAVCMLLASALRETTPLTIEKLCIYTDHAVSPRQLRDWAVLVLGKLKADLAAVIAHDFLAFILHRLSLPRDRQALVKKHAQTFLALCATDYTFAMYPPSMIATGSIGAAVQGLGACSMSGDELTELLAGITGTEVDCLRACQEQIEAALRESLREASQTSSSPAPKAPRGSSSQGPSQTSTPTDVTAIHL
For `I12A`, “normalised enrichment score” read 0.075.
Under “normalised enrichment score”, `L9A` is recorded as 0.0692.
For `D8A`, “normalised enrichment score” read 0.0702.
`K6A` — result for “normalised enrichment score”: 0.0734.
For `P2A`, “normalised enrichment score” read 0.0647.
`R5K` — result for “normalised enrichment score”: 0.168.
For `G13A`, “normalised enrichment score” read 0.142.

Set 5
Target: Histone acetyltransferase KAT6A, winged helix 1, GST fusion (KAT6A, Homo sapiens, UniProt Q92794, residues 1-85)
Technique: protein binding microarray
Form: double-stranded DNA, one strand shown
Sample: in vitro
Tested at: not given
Notes: 8-mer, flanks averaged, mean of 2 arrays, mostly near background
Reference: not given
Direction: higher = stronger binding
Construct (chain): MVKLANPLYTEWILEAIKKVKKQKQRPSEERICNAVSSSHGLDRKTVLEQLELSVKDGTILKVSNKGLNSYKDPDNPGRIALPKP
For `AAGAGGAT`, the E-score was -0.196.
`CAGGAGAA` gave an E-score of -0.155.
For `AATCTGAT`, the E-score was -0.108.
With `ACGTAAAC` the E-score was 0.0921.
For `ATTTCAGC`, the E-score was -0.185.
`CCCAACTA` has an E-score of -0.242.
With `AGGTGAGC` the E-score was -0.0487.
`GAACATCC` gave an E-score of -0.0801.
For `AAAATCAG`, the E-score was -0.189.
`ATATAGCA` gave an E-score of -0.144.
`ATATAGTA` gave an E-score of -0.197.
With `AGAAATAC` the E-score was -0.12.
The E-score of `TGAGCCCA` is reported as -0.179.
`AACGATCC` gave an E-score of -0.0265.
With `ATTATGTA` the E-score was 0.0454.
`CCATTAAC` has an E-score of -0.103.
With `CTCGCTCC` the E-score was -0.0583.
`TCGTCTCA` gave an E-score of -0.0916.
The E-score of `CCGCGAGA` is reported as 0.281.
The E-score of `AGAACACG` is reported as -0.0642.
`GCCTCTAA` has an E-score of -0.0577.
The E-score of `AACTGTAC` is reported as -0.0651.
The E-score of `CAAGATAA` is reported as -0.192.
With `GGAAATGA` the E-score was -0.0789.
`GCAGATGA` has an E-score of -0.0906.

Set 6
Target: Sal-like protein 4, full length isoform B (SALL4, Homo sapiens, UniProt Q9UJQ4-2, residues 1-616)
Technique: universal PBM
Form: double-stranded DNA, one strand shown
Sample: in vitro
Tested at: not given
Notes: 8-mer, flanks averaged, mean of replicates
Direction: higher = stronger binding
The E-score of `CCCTGGCA` is reported as -0.232.
With `GCCACCAA` the E-score was -0.0559.
`GTCGTTGA` has an E-score of -0.0243.
With `CCCAAAAC` the E-score was 0.137.
With `CCTTGGCG` the E-score was -0.392.
The E-score of `CTGCATGA` is reported as -0.157.
For `CGCTAATC`, the E-score was -0.0643.
`GACGAATA` gave an E-score of 0.155.
`GACGACGC` gave an E-score of -0.182.
For `TACGCCAA`, the E-score was 0.0762.
`AGCCCCCC` gave an E-score of -0.399.
`ATTACTAG` has an E-score of 0.28.
The E-score of `CGCTCTAA` is reported as -0.135.
`CGTATGGC` gave an E-score of 0.12.
`TATCTCGA` has an E-score of 0.198.
For `GACACTGC`, the E-score was -0.128.
The E-score of `GTGGCAAA` is reported as -0.0402.
For `ACGTCGTC`, the E-score was -0.0358.

Set 7
Partner: ARF22 498-598 (Arabidopsis thaliana, UniProt Q9C8N7)
Technique: two-hybrid
Reference: out of 4 tests
Direction: higher = firmer interaction
Residues (chain): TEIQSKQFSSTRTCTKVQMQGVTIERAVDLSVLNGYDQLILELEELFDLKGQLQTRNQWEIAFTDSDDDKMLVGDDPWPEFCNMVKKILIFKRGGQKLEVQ
`ARF13 (Arabidopsis thaliana, UniProt Q9FX25)` has a positive tests of 0.
The positive tests of `IAA29 (Arabidopsis thaliana, UniProt Q93WC4)` is reported as 1.
For `ETT (Arabidopsis thaliana, UniProt O23661)`, the positive tests was 0.
